Experimental data pooled from the literature.
Numbered parts are unrelated; each lists some results of a single study. Positions count from the first letter of the parent shown.

Set 1 — technique: RNA Bind-n-Seq; molecule type: RNA; matrix: in vitro; tested at: not given; relative to: input RNA pool; direction: higher = stronger binding
Target: RING finger protein unkempt homolog, zinc fingers 1-6, GST-SBP tag (UNK, Homo sapiens, UniProt Q9C0B0, residues 30-357)
Sequence of UniProt Q9C0B0 (30-357, looked up): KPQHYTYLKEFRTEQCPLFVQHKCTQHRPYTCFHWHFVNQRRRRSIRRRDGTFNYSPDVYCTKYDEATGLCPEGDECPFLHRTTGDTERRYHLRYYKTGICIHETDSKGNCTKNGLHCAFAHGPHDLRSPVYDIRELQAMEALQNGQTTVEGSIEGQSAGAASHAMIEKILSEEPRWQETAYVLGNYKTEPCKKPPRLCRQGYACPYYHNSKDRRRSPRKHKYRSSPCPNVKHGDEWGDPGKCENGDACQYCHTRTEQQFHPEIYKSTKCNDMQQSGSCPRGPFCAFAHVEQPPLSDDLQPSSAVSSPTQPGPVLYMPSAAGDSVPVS
Setting: RNA with constant flanks, human and mouse sites, ends assumed
| Sequence | bound/input enrichment |
| --- | --- |
| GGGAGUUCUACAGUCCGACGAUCGCGGAUCCGGGCCUUUCCGAUGACCAUGGAUGAAAAAUAUGUAAACAGCAUUUGGGACCUUCUGAAAAAUGCAAUUCAAGAAAUCCAGCGUAAGAAUAACAGUGGUCUUAGUUUUGAGGACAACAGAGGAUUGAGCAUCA | 0.731 ratio |
| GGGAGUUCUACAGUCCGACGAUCACAACAGCUAGAGCUUUUGCUGUUGUAGCCUCUGCCCUGGGCAUUCCUUCUUUAUUGCCCUUCUUAAAAGCUGUGUGCAAAAGCAAGAAGUCCUGGCAAGCGAGACACACUGGUAUUAAGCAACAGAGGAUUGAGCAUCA | 0.123 ratio |
| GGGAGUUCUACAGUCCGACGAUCUCCCCAGCAGGUGGUGGGCUACUUCAAUACAUACAAACUCCUUCCUCCCAAGAACCCAGCCACGAAACAACAGAAGCAGUGACCACUUCAACAGAAUUCUUUUGUGUUAUGUGGAGCAAUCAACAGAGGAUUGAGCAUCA | 0.511 ratio |
| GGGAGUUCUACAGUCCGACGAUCGAGAUGGAGAUACAAAUGAAAUCAAAAAAGCUUCCAAUUACGCGAAAGUUUUAUGCCUUUUAUCAUGCACCAAUUGUAAAAUUCUGGUUUAACACGUUGGCAUAUUUAGGAUUUCUGAUGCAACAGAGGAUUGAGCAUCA | 0.68 ratio |
| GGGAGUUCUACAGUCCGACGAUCGAUCUUGGUGGGCACGAGCAAGCACGUCGCGUUUGGAAAAAUUAUCUCCCAGCAAUUAAUGGGAUUGUCUUUCUGGUGGACUGUGCAGAUCAUUCUCGCCUCGUGGAAUCCAAAGUUGAGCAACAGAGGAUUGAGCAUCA | 0.107 ratio |
| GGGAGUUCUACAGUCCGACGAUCGGAUGAAUGAGCAGAUAAAUAUUGAUGUCAGCAUCCUUGAACCAUAUCAAAGUGAGCAGUGUUUGGCUACUGCUUCUAUUUGAAAUGGUGCUGUGUUUUGGUUGUGGUCUGAAGCUUUGACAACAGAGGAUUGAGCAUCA | 0.388 ratio |
| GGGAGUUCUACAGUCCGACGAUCCAUCGACAUUGGUAAUGUGGCCAGCUCUCCUUGGUCCUGUCCUCAGCCGAUGCUUUUUCAAUAGGAUUUUUAUGCUUUGUGUACCUCAACCAAGUAUGAAGAGCUGUACUGGUUUUAUAGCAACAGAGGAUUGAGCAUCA | 0.955 ratio |

Set 2 — technique: RNA Bind-n-Seq; molecule type: RNA; matrix: in vitro; tested at: 1 µM; setting: whole 134-nt RNA, ends assumed; with: 150 mM KCl; relative to: input library; direction: higher = stronger binding
Target: Ras GTPase-activating protein-binding protein 1, C-terminal RGG region (G3BP1, Homo sapiens, UniProt Q13283)
Sequence of UniProt Q13283 (whole entry, looked up): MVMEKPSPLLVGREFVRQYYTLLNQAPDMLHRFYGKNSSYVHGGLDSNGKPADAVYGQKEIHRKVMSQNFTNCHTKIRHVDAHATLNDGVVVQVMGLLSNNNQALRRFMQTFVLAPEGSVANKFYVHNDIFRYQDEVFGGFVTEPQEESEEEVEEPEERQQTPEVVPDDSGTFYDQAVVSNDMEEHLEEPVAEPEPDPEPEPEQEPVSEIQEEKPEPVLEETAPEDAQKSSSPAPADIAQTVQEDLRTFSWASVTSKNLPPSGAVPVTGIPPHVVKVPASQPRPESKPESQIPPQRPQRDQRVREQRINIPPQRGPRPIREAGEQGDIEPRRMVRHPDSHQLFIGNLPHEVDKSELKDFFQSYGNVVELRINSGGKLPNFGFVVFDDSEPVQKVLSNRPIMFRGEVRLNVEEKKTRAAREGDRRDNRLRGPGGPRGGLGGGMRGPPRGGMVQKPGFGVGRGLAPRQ
| Sequence | log2 enrichment |
| --- | --- |
| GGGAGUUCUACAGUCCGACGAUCUCCUGUGCUACACAUCGUAUGUACCGAAUCGGGGUUUUUGGGGUUUUUGGGGUUUUUGGGAAAGUAUUAUGUUACGCCGUUCGGAUCUGCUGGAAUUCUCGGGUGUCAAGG | 0.308 |
| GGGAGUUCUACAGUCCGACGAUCUAACUUUAGAGGAGUAUCUGAUGGAUAUGGCAGUGGACGUGGAUUUGGGGAUGGCUAUAAUGGGUAUGGAGGAGGACCUGGAGGUGGCAAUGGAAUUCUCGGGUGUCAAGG | -0.558 |
| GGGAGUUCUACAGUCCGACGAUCCAAGUCCUGUGCUACACAUCGUAUGUACCGAAUCGGGGUUUGGGUUUGGGGUUUGGAAAGUAUUAUGUUACGCCGUUCGGAUCUGCACUUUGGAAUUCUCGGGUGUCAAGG | -1.05 |
| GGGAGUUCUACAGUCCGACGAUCACCAUGCAGGUGGGCAUCUUUGGGAAGUGGGGCAAGGGGGGGAUAGGGAGGGGGGUAACACUUUGGGAACAGGUGGUCCCCGGUCGUUUCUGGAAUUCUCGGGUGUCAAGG | 1.53 |
| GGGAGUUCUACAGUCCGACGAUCCCUGUGCUACACAUCGUAUGUACCGAAUCAAACCCCCAAAUUUUUUUAAACCCCCCCAAAAAAGUAUUAUGUUACGCCGUUCGGAUCUGCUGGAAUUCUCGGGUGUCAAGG | -0.898 |
| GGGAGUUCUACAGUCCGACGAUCCUGUGCUACACAUCGUAUGUACCGAAUCGGGGAAAAAGGGGAAAAAGGGGUUUUUUUGGGGAAAGUAUUAUGUUACGCCGUUCGGAUCUGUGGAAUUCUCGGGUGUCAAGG | 0.854 |

Set 3 — technique: RNAcompete; molecule type: RNA; matrix: in vitro; tested at: 20 nM; setting: 7-mer, probes averaged, single round; relative to: mean of 7-mers; direction: higher = stronger binding
Target: PABPC1L2, full length, GST fusion (mouse, UniProt A0ABA7IW68)
Target sequence (chain): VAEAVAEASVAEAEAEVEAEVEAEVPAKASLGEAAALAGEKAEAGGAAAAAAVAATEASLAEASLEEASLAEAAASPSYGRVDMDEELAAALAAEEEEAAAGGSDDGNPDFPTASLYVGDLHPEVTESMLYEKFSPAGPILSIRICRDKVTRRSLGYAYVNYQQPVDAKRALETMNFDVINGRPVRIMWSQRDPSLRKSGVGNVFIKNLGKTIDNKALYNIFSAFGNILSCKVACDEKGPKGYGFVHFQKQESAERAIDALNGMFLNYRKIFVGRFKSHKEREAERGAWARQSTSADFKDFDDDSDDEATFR
| Sequence | 7-mer Z-score |
| --- | --- |
| UACUCAU | -0.3 |
| AGUCGUU | -0.508 |
| GGCCAAU | -0.0844 |
| CCGCUUU | -0.275 |
| AAACGUC | 0.51 |
| CAUGAUG | -0.159 |
| UAGGCAG | 0.151 |
| UGAUUCU | -0.228 |
| CCACACU | -0.296 |
| CCGGGGA | -0.0391 |
| UUUGGCA | -0.0808 |

Set 4 — technique: protein-binding microarray; molecule type: double-stranded DNA, one strand shown; matrix: in vitro; tested at: 940 nM top; setting: 60-bp whole probe; with: salmon DNA 0.4 mg/ml; relative to: random background probes; direction: higher = stronger binding; all sequences stand within: GCCTAGCAC … GTCTTGATTCGCTTGACGCTGCTG
Target: Interferon regulatory factor 5, full length, phosphomimetic (IRF5, Homo sapiens, UniProt Q13568-2, residues 1-514, S451D/S453D/S456D/S462D)
| Sequence | fitted relative affinity |
| --- | --- |
| TCAAATTCCAAGTTCATACTGTGCTAG | 0.575 z-score |
| GACGGTATCGACATTCGGGACGTGCTA | 3.46 z-score |
| TTAGGTCTCGGTCTCGATTAGTGCTAG | 5.45 z-score |
| TTAGGTTTCCTTCTCCTTTGGTGCTAG | 1.76 z-score |
| TCAGTTTCCTCTTTCACACTGTGCTAG | 2.55 z-score |
| CACTAGTTTCTTTTCTTTTCGTGCTAG | 3.74 z-score |
| ACCATTGTGGTTTTCATTATGTGCTAG | 0.393 z-score |
| TTAGGTTACGGTCTCGGTTAGTGCTAG | 2.06 z-score |
| GACGGACTGGGGACTGGGTACGTGCTA | -0.64 z-score |
| GACGATTTCGGGACAGGAGACGTGCTA | -0.122 z-score |
| TTAGGACTGATTATCCTTTAGTGCTAG | -0.641 z-score |
| AGCAGTTTCTCAACCACTTTGTGCTAG | 1.42 z-score |
| GACCATATCAGTTTCGAGACGTGCTAG | 4.58 z-score |
| GACGGTATCGACTATCTGGACGTGCTA | 4.61 z-score |

Set 5 — technique: DHFR PCA, deep sequencing; matrix: yeast; with: (+)-ABA 200 µM; relative to: wild-type fitted maximum; direction: higher = stronger binding
Target: ABI1, truncated, D143A, DHFR fusion (Arabidopsis thaliana)
Setting: methotrexate growth selection, single substitutions
Parent: PYL1, truncated, DHFR fusion (Arabidopsis thaliana); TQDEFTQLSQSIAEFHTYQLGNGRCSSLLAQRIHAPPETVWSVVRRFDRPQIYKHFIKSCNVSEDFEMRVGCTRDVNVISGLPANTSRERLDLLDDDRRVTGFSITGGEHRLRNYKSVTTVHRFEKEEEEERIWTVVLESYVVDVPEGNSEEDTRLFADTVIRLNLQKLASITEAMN
| Substitution | relative binding score [%] |
| --- | --- |
| L166F | 57.7 |
| S9R | 98.3 |
| Q10S | 99.9 |
| T73F | 107 |
| Y18H | 107 |
| E152L | 91.5 |
| Q2Y | 89.8 |
| K168I | 77.7 |
| V43W | 36.7 |
| A170K | 104 |

Set 6 — technique: protein binding microarray; molecule type: double-stranded DNA, one strand shown; matrix: in vitro; tested at: not given; relative to: not given; direction: higher = stronger binding
Target: Histone acetyltransferase KAT6A, winged helix 2, GST fusion (KAT6A, Homo sapiens, UniProt Q92794, residues 85-181)
Setting: 8-mer, flanks averaged, mean of 2 arrays, mostly near background
Residues (chain): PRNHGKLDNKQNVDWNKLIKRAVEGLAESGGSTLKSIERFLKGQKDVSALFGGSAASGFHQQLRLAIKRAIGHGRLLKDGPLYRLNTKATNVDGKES
| Sequence | E-score |
| --- | --- |
| CTCCGCCC | 0.232 |
| ATCCGCTA | 0.139 |
| CCTTTACA | -0.0807 |
| TTGCCAAA | 0.103 |
| GTAGGAAA | -0.00592 |
| AAACGGGT | 0.0127 |
| AAGAAGCA | 0.161 |
| CTGGTGAA | -0.0383 |
| CTGAGCGA | 0.196 |
| AATGATAG | -0.0175 |
| AAGGATAT | -0.0939 |
| CCGTCGCG | 0.12 |
| CATCAGGA | 0.0881 |

Set 7 — technique: universal PBM; molecule type: double-stranded DNA, one strand shown; matrix: in vitro; tested at: not given; direction: higher = stronger binding
Target: Sal-like protein 4, full length isoform B (SALL4, Homo sapiens, UniProt Q9UJQ4-2, residues 1-616)
Setting: 8-mer, flanks averaged, mean of replicates
Construct (chain): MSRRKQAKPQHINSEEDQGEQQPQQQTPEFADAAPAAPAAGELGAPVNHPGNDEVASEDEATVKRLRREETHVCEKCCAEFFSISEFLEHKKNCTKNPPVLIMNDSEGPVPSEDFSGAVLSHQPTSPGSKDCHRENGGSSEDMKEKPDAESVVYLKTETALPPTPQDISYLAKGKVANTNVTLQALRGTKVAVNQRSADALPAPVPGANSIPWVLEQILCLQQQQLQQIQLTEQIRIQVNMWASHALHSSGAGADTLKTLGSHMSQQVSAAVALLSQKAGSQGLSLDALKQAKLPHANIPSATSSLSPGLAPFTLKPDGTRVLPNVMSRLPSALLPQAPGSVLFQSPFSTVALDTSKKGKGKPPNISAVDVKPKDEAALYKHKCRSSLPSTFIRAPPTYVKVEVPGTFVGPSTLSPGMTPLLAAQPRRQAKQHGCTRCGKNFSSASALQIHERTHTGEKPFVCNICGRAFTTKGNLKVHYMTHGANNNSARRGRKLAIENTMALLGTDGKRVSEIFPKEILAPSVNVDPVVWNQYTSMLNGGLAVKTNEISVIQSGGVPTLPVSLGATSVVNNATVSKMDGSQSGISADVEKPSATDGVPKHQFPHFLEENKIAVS
| Sequence | E-score |
| --- | --- |
| TGAAGGAA | 0.166 |
| AACGCCAG | -0.172 |
| AGGCGTTG | -0.0653 |
| AAAACAGA | 0.188 |
| CTCTGGCC | -0.155 |
| AGACCGGC | -0.366 |
| ATGAGCTG | -0.0171 |
| GCATTCCC | -0.129 |
| CAGATCCC | -0.118 |
| AAAACAGT | 0.19 |
| ACTGCTGC | -0.206 |
| TAAGCCCA | 0.0445 |
| GGGAATGA | 0.0884 |
| GGCCAGAA | -0.178 |

A few entries again (set 3):
| Sequence | 7-mer Z-score |
| --- | --- |
| GGCCAAU | -0.0844 |
| UACUCAU | -0.3 |
| UUUGGCA | -0.0808 |
| AGUCGUU | -0.508 |
| CAUGAUG | -0.159 |
| UGAUUCU | -0.228 |
| CCACACU | -0.296 |
| UAGGCAG | 0.151 |
